{"data": "Measurements collected from several papers", "target": "3',5'-cyclic-AMP phosphodiesterase 4D (PDE4D, Homo sapiens, UniProt Q08499)", "note": "Values joined by “and” are separate records of one study, mostly repeats; a detail may differ."}
{"Compound": "Cc1cc(O)c(C(=O)CCC(C)C)c(=O)o1", "assay": "enzyme activity, inhibitor, radiometric", "conditions": "50 µM", "endpoint": "inhibition", "result": "13.5%"}
{"Compound": "CS(C)(=O)=Nc1ccc(-c2ccc(-c3nc4cc(O[C@@H]5CO[C@H]6[C@@H]5OC[C@H]6O)[nH]c4cc3F)cc2)cc1", "assay": "enzyme activity", "conditions": "10 µM", "scale": "baseline: control", "endpoint": "inhibition", "result": "35%"}
{"Compound": "C/C(=N\\OCCCN1CCCCC1)c1ccc(C(F)(F)F)cc1", "assay": "antagonist, FP", "conditions": "10 µM", "endpoint": "inhibition", "result": "4.44%"}
{"Compound": "Cc1cc(-c2ccc3ccccc3c2)nnc1NCCN1CCN(C)CC1", "assay": "enzyme activity", "conditions": "concentration not given", "endpoint": "inhibition", "result": "negative"}
{"Compound": "CCc1nnc(-c2c(OC)cc(-c3cnc4cc(-c5cnn(C)c5)ccn34)cc2OC)o1", "conditions": "10 µM", "endpoint": "inhibition of specific binding", "result": "64%"}
{"Compound": "N#C[C@H](O[C@@H]1O[C@H](CO[C@@H]2O[C@H](CO)[C@@H](O)[C@H](O)[C@H]2O)[C@@H](O)[C@H](O)[C@H]1O)c1ccccc1", "assay": "enzyme activity, inhibitor, radiometric", "conditions": "50 µM", "endpoint": "inhibition", "result": "10.4%"}
{"Compound": "CCN(CC)CCOc1ccc(-c2nnn(Cc3ccc(OC)cc3)c2N)cc1", "assay": "enzyme activity", "conditions": "10 µM", "endpoint": "inhibition", "result": "38.5%"}
{"Compound": "Cc1cc(Nc2nc(C[C@@]3(C(=O)O)CCN(Cc4cccc(Cl)c4F)[C@H](C)C3)cc(C)c2F)[nH]n1", "assay": "enzyme activity, inhibitor", "conditions": "10 µM", "endpoint": "inhibition", "result": "-10.9%"}
{"Compound": "C[C@@H]1COCCN1c1nc(NCc2cccnc2C(F)(F)F)c2cccnc2n1", "assay": "binding", "conditions": "CEREP panel", "endpoint": "IC50", "result": "9.24 µM"}
{"Compound": "CCO[C@H]1[C@H](O)[C@@H](N)[C@@H](O[C@H]2[C@H](O[C@@H]3O[C@H](CO)[C@@H](O[C@H]4O[C@@H](CN)[C@@H](O)[C@H](O)[C@H]4N)[C@H]3O)[C@@H](O)[C@H](N)C[C@@H]2N)O[C@@H]1CO", "assay": "cell-free assay", "conditions": "10 µM", "endpoint": "remaining signal", "result": "1%"}
{"Compound": "CC(C)=CCc1c(O)ccc(-c2coc3cc(O)cc(O)c3c2=O)c1O", "assay": "enzyme activity, inhibitor, radiometric", "conditions": "50 µM", "endpoint": "inhibition", "result": "96.8%"}
{"Compound": "CCOC(=O)[C@](CC)(CCCSCCOCCOCCNC(=O)c1ccc(-c2c3ccc(=N)c(S(=O)(=O)O)c-3oc3c(S(=O)(=O)O)c(N)ccc23)c(C(=O)O)c1)NC(=O)c1ccc(C2CC2)c(Cc2ccc(F)cc2)n1", "assay": "enzyme activity, inhibitor", "conditions": "10 µM", "endpoint": "inhibition", "result": "32%"}
{"Compound": "O=C(O)c1ccc(-c2nc(-c3ccccc3Cl)c3sccn23)cc1", "assay": "radioligand binding, safety screen panel", "conditions": "10 µM", "scale": "baseline: control", "endpoint": "specific binding", "result": "85.8% and 80.8%"}
{"Compound": "COc1c(/C=C/C(=O)c2ccc(O)cc2)ccc(O)c1O", "assay": "enzyme activity, inhibitor, radiometric", "conditions": "50 µM", "endpoint": "inhibition", "result": "87.1%"}
{"Compound": "N[C@H](C(=O)N1CCCC1)C1CCN(c2nccc3c(-c4ncc(Cl)cc4Cl)cccc23)CC1", "assay": "enzyme activity, inhibitor", "conditions": "10 µM", "endpoint": "inhibition", "result": "-3%"}
{"note": "Excerpt of the above:"}
{"Compound": "CCc1nnc(-c2c(OC)cc(-c3cnc4cc(-c5cnn(C)c5)ccn34)cc2OC)o1", "conditions": "10 µM", "endpoint": "inhibition of specific binding", "result": "64%"}
